{"data": "Results from different studies", "note": "Lines come from different studies, so protocols differ. Several values in a cell are separate wells, animals, samples, runs or records. ± marks the error that the study gave."}
{"SMILES": "CN1Cc2cc(Cl)ccc2-n2c(nnc2C2CCN(c3cccc([18F])n3)CC2)C1", "test system": "C57BL/6 mouse male, adrenal gland", "setting": "intravenous, 3.7 MBq, 30 min", "endpoint": "tissue uptake", "result": "11.7 ± 8.31 %ID/g"}
{"SMILES": "O=C(c1cc(Cc2n[nH]c(=O)c3ccccc23)ccc1F)N1CC(CNC2CC2)C1", "test system": "Wistar Han rat, female, blood", "setting": "oral, 30 mg/kg daily, 4 weeks", "endpoint": "haematocrit", "result": "41.6 ± 3.2%"}
{"SMILES": "CCCCCCCCCCCCCCCC(=O)N[C@@H](CCC(=O)NCCOCCOCCC(=O)NCCOCCOCCC(=O)NCCCC[C@H](NC(=O)[C@H](CC(=O)O)NC(=O)[C@H](CC(C)C)NC(=O)[C@H](Cc1ccc(O)cc1)NC(=O)[C@H](CCCCN)NC(=O)[C@H](CO)NC(=O)[C@H](Cc1ccc(O)cc1)NC(=O)[C@H](CC(=O)O)NC(=O)[C@H](CO)NC(=O)[C@@H](NC(=O)[C@H](Cc1ccccc1)NC(=O)[C@@H](NC(=O)CNC(=O)[C@H](CCC(N)=O)NC(=O)[C@@H](CO)NC(=O)[C@@H](N)Cc1c[nH]cn1)[C@@H](C)O)[C@@H](C)O)C(=O)N[C@@H](CCCNC(=N)N)C(=O)N[C@@H](CCCNC(=N)N)C(=O)N[C@@H](C)C(=O)N[C@@H](CCC(N)=O)C(=O)N[C@@H](CC(=O)O)C(=O)N[C@@H](Cc1ccccc1)C(=O)N[C@H](C(=O)N[C@@H](CCC(N)=O)C(=O)N[C@@H](Cc1c[nH]c2ccccc12)C(=O)N[C@@H](CC(C)C)C(=O)N[C@@H](CC(C)C)C(=O)N[C@@H](CC(N)=O)C(=O)N[C@H](C(=O)NCC(=O)NCC(=O)N1CCC[C@H]1C(=O)N[C@@H](CO)C(=O)N[C@@H](CO)C(=O)NCC(=O)N[C@@H](C)C(=O)N1CCC[C@H]1C(=O)N1CCC[C@H]1C(=O)N1CCC[C@H]1C(=O)N[C@@H](CO)C(N)=O)[C@@H](C)O)C(C)C)C(=O)O", "test system": "rhesus monkey, male, plasma", "setting": "subcutaneous, 20 µg/kg, day 28, toxicokinetics, median", "endpoint": "Tmax", "result": "1 h"}
{"SMILES": "CC[C@H](C)[C@H](NC(=O)[C@H](Cc1ccc(O)cc1)NC(=O)[C@@H](NC(=O)[C@H](CCCNC(=N)N)NC(=O)[C@@H](N)CC(=O)O)C(C)C)C(=O)N[C@@H](Cc1c[nH]cn1)C(=O)N1CCC[C@H]1C(=O)O", "test system": "Beagle dog, plasma", "setting": "subcutaneous, 10 mg/kg/day, day 0", "endpoint": "elimination rate constant", "result": "0.03 min⁻¹"}
{"SMILES": "CC(C)(CCCC/C=C/CCCCCC(C)(C)C(=O)O)C(=O)O", "test system": "ICR mice, both sexes", "setting": "oral, dose not given, 1 h", "endpoint": "plasma concentration", "result": "18900 ng/mL"}
{"SMILES": "CC(C)c1ccccc1/N=N/c1ccc2[nH]cc(CCN(C)C)c2c1", "assay": "light irradiation", "test system": "solution", "setting": "together with: light 530 nm", "endpoint": "trans isomer at photostationary state", "result": "70%"}
{"SMILES": "Cc1ccc(N2CCN(C)[C@H](C)C2)cc1C(=O)N[C@H](C)c1cc(-c2cnn(C)c2)nc2ccccc12", "tested on": "African green monkey cells", "setting": "7.812 µM", "endpoint": "viability", "result": "100%"}
{"SMILES": "N=C(N)NCCC[C@H](NC(=O)[C@H](CCCNC(=N)N)NC(=O)[C@H](CCCNC(=N)N)NC(=O)[C@H](CCC(N)=O)NC(=O)[C@H](CCCNC(=N)N)NC(=O)[C@H](CCCNC(=N)N)NC(=O)[C@H](CCCCN)NC(=O)[C@H](CCCCN)NC(=O)[C@H](CCCNC(=N)N)NC(=O)CNC(=O)[C@H](Cc1ccc(O)cc1)NC(=O)[C@H](Cc1ccccc1)NC(=O)[C@H](Cc1ccccc1)NC(=O)[C@H](Cc1ccccc1)NC(=O)Cc1ccc2ccccc2c1)C(=O)O", "test system": "C57BL/6 mice", "setting": "intraperitoneal, 10 mg/kg, 24 h", "how to read": "direction not given", "endpoint": "health score", "result": 5}
{"SMILES": "CSCC[C@H](NC(=O)CNC(=O)[C@H](CCCCN)NC(=O)[C@H](CC(C)C)NC(=O)[C@@H]1CCCN1C(=O)[C@H](CO)NC(=O)[C@H](Cc1c[nH]cn1)NC(=O)[C@H](Cc1c[nH]c2ccccc12)NC(=O)[C@H](CCCNC(=N)N)NC(=O)[C@H](CC(C)C)NC(=O)[C@H](CCCNC(=N)N)NC(=O)[C@H](Cc1c[nH]c2ccccc12)NC(=O)[C@H](CS)NC(=O)CCCCCNC(=O)CN1CCN(CC(=O)O)CCN(CC(=O)O)CCN(CC(=O)O)CC1)C(=O)O [copper-64 labelled]", "assay": "ex vivo biodistribution", "test system": "male C57BL/6J mice, kidney", "setting": "intravenous, 1.85 MBq, 0.5 h, B16-F10 tumour-bearing", "endpoint": "tissue uptake", "result": "53.2 %ID/g"}
{"SMILES": "COc1cnc2cccc(N3CCc4c(cc(Cn5ccnc5)cc4-c4cn(C)nc4C(F)(F)F)C3=O)c2c1", "test system": "BALB/c nude mice, MV4-11 xenograft", "setting": "intraperitoneal, 75 mg/kg, day 28", "endpoint": "body weight", "result": "22.2 g and 23 g and 21.5 g and 23.8 g and 23.1 g and 23.2 g and 26 g"}
{"SMILES": "O=C1NC2(CC2)COc2ncc(F)cc2[C@H]2COCCN2c2ccn3ncc1c3n2", "test system": "Sprague-Dawley rat, female, spleen", "setting": "oral, 10 mg/kg/day, 4 weeks, end of treatment", "endpoint": "organ-to-brain weight ratio", "result": "58.5 ± 12.8%"}
{"SMILES": "CC[C@H](C)[C@H](NC(=O)CN)C(=O)N[C@@H](CCCNC(=N)N)C(=O)N[C@@H](CCCCN)C(=O)N[C@@H](Cc1c[nH]c2ccccc12)C(=O)N[C@@H](Cc1ccccc1)C(=O)N[C@@H](CCCCN)C(=O)N[C@@H](CCCCN)C(=O)N[C@@H](C)C(=O)N[C@@H](C)C(=O)N[C@@H](Cc1c[nH]cn1)C(=O)N[C@H](C(=O)NCC(=O)N[C@@H](CCCCN)C(=O)N[C@@H](CCC(=O)O)C(=O)N[C@H](C(=O)NCC(=O)N[C@@H](CCCCN)C(=O)N[C@H](C(=O)N[C@@H](C)C(=O)N[C@@H](CC(C)C)C(=O)N[C@@H](CC(N)=O)C(=O)N[C@@H](C)C(=O)N[C@@H](CS)C(=O)N[C@@H](CC(C)C)C(=O)O)C(C)C)C(C)C)C(C)C", "test system": "zebrafish embryos 28 hpf, E3 medium", "setting": "1 h", "endpoint": "acute toxic concentration", "result": "25 µM"}
{"SMILES": "C=C/C=C/C[C@@H](C)[C@@H](O)[C@H]1C(=O)N[C@@H](CC)C(=O)N(C)CC(=O)N(C)[C@@H](CC(C)C)C(=O)N[C@@H](C(C)C)C(=O)N(C)[C@@H](CC(C)C)C(=O)N[C@@H](C)C(=O)N[C@H](C)C(=O)N(C)[C@@H](CC(C)C)C(=O)N(C)[C@@H](CC(C)C)C(=O)N(C)[C@@H](C(C)C)C(=O)N1C", "test system": "Wistar Kyoto rat, male, plasma", "setting": "ip, 0.5 mg/kg/day, day 28, at sacrifice", "endpoint": "plasma HCO3- level", "result": "25.3 ± 1.1 mmol/L"}
{"SMILES": "C/C(=N\\OCCCN1CCCCC1)c1ccc(C(F)(F)F)cc1", "test system": "C57BL/6 mouse, brain", "setting": "intravenous, 5 mg/kg, 4 h", "endpoint": "brain concentration", "result": "1280 ± 301 ng/g"}
{"SMILES": "Cc1ccc(OCCN(C)C)cc1C(=O)N[C@H](C)c1cc(-c2cccnc2N2CCCC2)nc2ccccc12", "tested on": "Vero E6", "setting": "7.812 µM", "endpoint": "viability", "result": "95% and 98.2%"}
{"note": "Excerpt of the above:"}
{"SMILES": "CSCC[C@H](NC(=O)CNC(=O)[C@H](CCCCN)NC(=O)[C@H](CC(C)C)NC(=O)[C@@H]1CCCN1C(=O)[C@H](CO)NC(=O)[C@H](Cc1c[nH]cn1)NC(=O)[C@H](Cc1c[nH]c2ccccc12)NC(=O)[C@H](CCCNC(=N)N)NC(=O)[C@H](CC(C)C)NC(=O)[C@H](CCCNC(=N)N)NC(=O)[C@H](Cc1c[nH]c2ccccc12)NC(=O)[C@H](CS)NC(=O)CCCCCNC(=O)CN1CCN(CC(=O)O)CCN(CC(=O)O)CCN(CC(=O)O)CC1)C(=O)O [copper-64 labelled]", "assay": "ex vivo biodistribution", "test system": "male C57BL/6J mice, kidney", "setting": "intravenous, 1.85 MBq, 0.5 h, B16-F10 tumour-bearing", "endpoint": "tissue uptake", "result": "53.2 %ID/g"}
{"SMILES": "Cc1ccc(N2CCN(C)[C@H](C)C2)cc1C(=O)N[C@H](C)c1cc(-c2cnn(C)c2)nc2ccccc12", "tested on": "African green monkey cells", "setting": "7.812 µM", "endpoint": "viability", "result": "100%"}
{"SMILES": "COc1cnc2cccc(N3CCc4c(cc(Cn5ccnc5)cc4-c4cn(C)nc4C(F)(F)F)C3=O)c2c1", "test system": "BALB/c nude mice, MV4-11 xenograft", "setting": "intraperitoneal, 75 mg/kg, day 28", "endpoint": "body weight", "result": "22.2 g and 23 g and 21.5 g and 23.8 g and 23.1 g and 23.2 g and 26 g"}
